Measurements from different studies.
Numbered parts are unrelated; each lists some results of a single study.
Sequence of UniProt O14757 (whole entry, looked up): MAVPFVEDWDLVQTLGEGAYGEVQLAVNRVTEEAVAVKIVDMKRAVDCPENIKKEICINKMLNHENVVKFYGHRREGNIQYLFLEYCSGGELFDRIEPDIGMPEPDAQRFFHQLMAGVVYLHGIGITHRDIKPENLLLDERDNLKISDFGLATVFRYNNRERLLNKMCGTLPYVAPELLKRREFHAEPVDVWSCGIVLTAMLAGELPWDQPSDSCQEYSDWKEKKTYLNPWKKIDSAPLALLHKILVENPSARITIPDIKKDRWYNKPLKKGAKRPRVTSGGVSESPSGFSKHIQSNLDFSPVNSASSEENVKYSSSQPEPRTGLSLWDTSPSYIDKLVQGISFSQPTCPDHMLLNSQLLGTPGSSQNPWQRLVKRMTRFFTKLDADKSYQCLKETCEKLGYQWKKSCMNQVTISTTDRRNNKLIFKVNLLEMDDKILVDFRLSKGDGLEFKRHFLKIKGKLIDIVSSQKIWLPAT
Sequence of UniProt Q9Y2K2 (whole entry, looked up): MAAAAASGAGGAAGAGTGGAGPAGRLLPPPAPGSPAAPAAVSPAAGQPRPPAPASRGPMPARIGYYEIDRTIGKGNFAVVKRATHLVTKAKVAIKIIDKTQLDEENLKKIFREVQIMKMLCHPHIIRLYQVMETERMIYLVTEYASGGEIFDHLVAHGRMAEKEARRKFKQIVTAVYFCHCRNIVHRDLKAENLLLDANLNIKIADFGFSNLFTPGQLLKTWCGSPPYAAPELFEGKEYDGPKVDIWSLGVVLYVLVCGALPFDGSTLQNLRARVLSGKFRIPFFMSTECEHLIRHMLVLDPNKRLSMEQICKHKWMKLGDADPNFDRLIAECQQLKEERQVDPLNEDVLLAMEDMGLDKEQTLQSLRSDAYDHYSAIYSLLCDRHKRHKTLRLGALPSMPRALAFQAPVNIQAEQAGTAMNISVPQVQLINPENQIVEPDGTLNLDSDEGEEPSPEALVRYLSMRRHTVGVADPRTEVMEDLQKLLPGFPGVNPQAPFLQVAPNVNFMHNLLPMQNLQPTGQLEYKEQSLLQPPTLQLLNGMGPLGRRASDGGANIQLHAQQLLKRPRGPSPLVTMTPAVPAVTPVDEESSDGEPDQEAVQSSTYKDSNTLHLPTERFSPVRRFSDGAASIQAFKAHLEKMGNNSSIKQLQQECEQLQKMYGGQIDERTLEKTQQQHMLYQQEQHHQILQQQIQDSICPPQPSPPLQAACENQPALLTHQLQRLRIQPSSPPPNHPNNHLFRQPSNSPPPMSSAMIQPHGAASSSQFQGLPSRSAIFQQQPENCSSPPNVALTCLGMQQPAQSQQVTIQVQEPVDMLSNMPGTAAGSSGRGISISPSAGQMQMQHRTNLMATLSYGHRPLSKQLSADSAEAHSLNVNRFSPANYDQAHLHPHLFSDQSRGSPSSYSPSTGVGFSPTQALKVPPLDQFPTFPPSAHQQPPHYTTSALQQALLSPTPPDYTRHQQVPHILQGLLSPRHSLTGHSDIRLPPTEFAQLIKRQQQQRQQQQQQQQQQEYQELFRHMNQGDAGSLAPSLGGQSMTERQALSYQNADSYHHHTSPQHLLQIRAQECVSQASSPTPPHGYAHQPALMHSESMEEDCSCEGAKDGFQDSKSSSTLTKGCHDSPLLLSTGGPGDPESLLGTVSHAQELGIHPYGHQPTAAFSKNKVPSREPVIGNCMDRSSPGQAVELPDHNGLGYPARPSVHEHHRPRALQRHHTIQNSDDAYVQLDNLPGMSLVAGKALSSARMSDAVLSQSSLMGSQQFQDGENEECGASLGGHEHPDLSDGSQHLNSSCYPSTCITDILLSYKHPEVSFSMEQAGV

Set 1
Target: Sal-like protein 4, full length isoform B (SALL4, Homo sapiens, UniProt Q9UJQ4-2, residues 1-616)
Technique: universal PBM
Form: double-stranded DNA, one strand shown
Matrix: in vitro
Tested at: not given
Notes: 8-mer, flanks averaged, mean of replicates
Direction: higher = stronger binding
Residues (chain): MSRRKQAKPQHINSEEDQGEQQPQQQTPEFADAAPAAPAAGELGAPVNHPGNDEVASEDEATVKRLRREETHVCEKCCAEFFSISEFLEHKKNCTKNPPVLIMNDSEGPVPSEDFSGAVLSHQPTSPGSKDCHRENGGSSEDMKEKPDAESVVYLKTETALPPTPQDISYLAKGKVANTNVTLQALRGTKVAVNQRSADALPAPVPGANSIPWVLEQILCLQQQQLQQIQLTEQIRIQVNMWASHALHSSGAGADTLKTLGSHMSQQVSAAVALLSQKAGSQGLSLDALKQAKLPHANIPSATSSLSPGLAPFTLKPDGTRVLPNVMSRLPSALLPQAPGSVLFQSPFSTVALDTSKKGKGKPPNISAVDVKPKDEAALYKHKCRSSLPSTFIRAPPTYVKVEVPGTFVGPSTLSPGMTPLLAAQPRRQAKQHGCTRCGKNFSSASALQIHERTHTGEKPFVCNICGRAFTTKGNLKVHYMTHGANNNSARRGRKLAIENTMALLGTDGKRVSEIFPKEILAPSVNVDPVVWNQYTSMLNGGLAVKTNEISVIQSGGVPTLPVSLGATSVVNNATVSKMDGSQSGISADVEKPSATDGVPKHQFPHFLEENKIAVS
Strand | E-score
TGTCAACA | 0.122
GAATACGC | -0.0193
ATCGCGAG | -0.0262
CCAATTAG | 0.105
ACTCTTGC | -0.0322
CAAGGTGC | -0.187
ACAGCGTG | -0.0614
GCAACCAA | -0.0266

Set 2
Structure (SMILES): CCCOc1ccc([C@H]2[C@H](C(=O)O)[C@@H](c3ccc4c(c3)OCO4)CN2CC(=O)Nc2c(CC)cccc2CC)cc1
Effect on: cell-free assay
Technique: competition with immobilised ligand
Tested at: 1 µM
target | remaining binding [%]
SIK3 (Homo sapiens, UniProt Q9Y2K2) | 71
CHEK1 (Homo sapiens, UniProt O14757) | 98
FLT3 (Homo sapiens, UniProt P36888, R834Q) | 91

Set 3
Target: Eukaryotic initiation factor 4A-I (EIF4A1, Homo sapiens, UniProt P60842, residues 1-406, full length assumed)
Sequence of UniProt P60842 (whole entry, looked up): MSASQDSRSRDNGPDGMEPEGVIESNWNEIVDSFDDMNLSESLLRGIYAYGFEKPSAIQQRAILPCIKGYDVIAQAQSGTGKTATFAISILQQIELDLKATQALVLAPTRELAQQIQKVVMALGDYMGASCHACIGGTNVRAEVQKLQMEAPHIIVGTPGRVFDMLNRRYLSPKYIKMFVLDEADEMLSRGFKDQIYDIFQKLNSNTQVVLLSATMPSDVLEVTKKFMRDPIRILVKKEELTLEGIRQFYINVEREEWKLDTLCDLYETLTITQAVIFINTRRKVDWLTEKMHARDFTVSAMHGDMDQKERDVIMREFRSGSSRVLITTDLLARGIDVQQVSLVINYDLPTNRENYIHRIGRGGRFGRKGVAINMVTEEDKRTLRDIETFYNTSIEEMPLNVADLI
Technique: RNA Bind-n-Seq
Form: RNA
Matrix: in vitro
Tested at: 15 pmol
Notes: 4-mer, random 30-nt RNA, single round
With: 3 µM DMDA-PatA, 2 mM AMP-PNP
Relative to: input library
Direction: higher = stronger binding
Strand | 4-mer enrichment [fold]
GUGG | 1.66
UCCA | 0.394
AGAU | 1.19
ACAC | 0.526
CAUA | 0.649
UCCG | 0.887
CUCU | 0.694
GAAG | 1.04

Further values, each from its own experiment
SMILES | matrix | endpoint | result
CCC[C@@H]1NC(=O)CSC[C@@H](C(=O)OCC)N(C)C(=O)[C@H](CC(C)C)NC(=O)[C@H](C)N(C)C(=O)[C@@H](CC(C)C)NC(=O)[C@H](C)N(C)C(=O)[C@@H]2CCCN2C(=O)[C@H](CC(C)C)NC(=O)CN(CCC)C1=O | hydrocarbon/water | logD | 0.664

Excerpt of the above (further values, each from its own experiment):
SMILES | matrix | endpoint | result
CCC[C@@H]1NC(=O)CSC[C@@H](C(=O)OCC)N(C)C(=O)[C@H](CC(C)C)NC(=O)[C@H](C)N(C)C(=O)[C@@H](CC(C)C)NC(=O)[C@H](C)N(C)C(=O)[C@@H]2CCCN2C(=O)[C@H](CC(C)C)NC(=O)CN(CCC)C1=O | hydrocarbon/water | logD | 0.664
